Values quoted from earlier work as cited in several papers.
Compare with care: the assays were run in different laboratories. ± marks the error that the study gave.

| SMILES | test | system | conditions | scale | measurement | result |
| --- | --- | --- | --- | --- | --- | --- |
| COc1ccc(Nc2nc(Nc3ccc(OCC[18F])cc3)ncc2Br)cc1 | – | S180 tumour-bearing mice, brain | intravenous, 15 min | – | tissue uptake | 0.89 ± 0.18 %ID/g |
| N#Cc1ccnc(N2C(=O)CC[C@H]2C(=O)N(c2cncc(F)c2)[C@H](C(=O)NC2CC(F)(F)C2)c2ccccc2Cl)c1 | – | relapsed/refractory mIDH1 AML patients | dose not given, trial, interim | – | median complete response duration | 9.3 months |
| C=Cc1c(C)c2cc3nc(c(CC(=O)[O-])c4[n-]c(cc5nc(cc1[n-]2)C(C)=C5CC)c(C)c4C(=O)[O-])C(CCC(=O)[O-])C3C.[Cu+2].[Na+].[Na+].[Na+] (stereo not drawn) | – | patients with pelvic malignancies | oral, dose not given | – | patients with cystitis prevented | > 80% |
| Cc1sc(-c2ccc(C(F)(F)F)cc2)nc1-c1nn[nH]c1C#N | – | ZDF rat | 4 mg/kg/day, 6 weeks | – | HbA1c change from baseline | 2.88 ± 0.21% |
| COc1ccc2c(c1)CN(C(=O)CCN1CCC(Cc3ccccc3)CC1)CC[S+]2[O-] (stereo not drawn) | – | dog AF model | dose not given | reference: animals | AF conversion | 100% |
| CCCCCCCCCCCCCCCC(=O)N[C@@H](CCC(=O)NCCCC[C@H](NC(=O)[C@H](CC(=O)O)NC(=O)[C@H](CO)NC(=O)[C@@H](NC(=O)[C@H](Cc1ccccc1)NC(=O)[C@@H](NC(=O)CNC(=O)[C@H](CCC(N)=O)NC(=O)[C@H](CO)NC(=O)[C@@H](N)Cc1c[nH]cn1)[C@@H](C)O)[C@@H](C)O)C(=O)N[C@@H](CO)C(=O)N[C@@H](CCC(=O)O)C(=O)N[C@@H](Cc1ccc(O)cc1)C(=O)N[C@@H](CC(C)C)C(=O)N[C@@H](CC(=O)O)C(=O)N[C@@H](CO)C(=O)N[C@@H](CCC(=O)O)C(=O)N[C@@H](CCCNC(=N)N)C(=O)N[C@@H](C)C(=O)N[C@@H](CCCNC(=N)N)C(=O)N[C@@H](CC(=O)O)C(=O)N[C@@H](Cc1ccccc1)C(=O)N[C@H](C(=O)N[C@@H](C)C(=O)N[C@@H](Cc1c[nH]c2ccccc12)C(=O)N[C@@H](CC(C)C)C(=O)N[C@@H](CCC(=O)O)C(=O)N[C@@H](C)C(=O)NCC(=O)NCC(=O)O)C(C)C)C(=O)O | – | type 2 diabetes CKD patients | 50 to 300 µg | reference: placebo | body weight reduction | 3.41 kg |
| COC(=O)C1(CCCCl)C=C(C(=O)OC(C)(C)C)C(=O)CC1 (stereo not drawn) | GSH adduct formation | PBS | pH 7.4, 37 °C, added: GSH 10 mM | – | rate constant | 0.089 min⁻¹ |
| COC1=C(C)OC(C)C1=O (stereo not drawn) | – | human, water | – | – | odour detection threshold | 56 µg/kg |
| CC[C@H](C)[C@H](NC(=O)[C@H](CC(C)C)NC(=O)[C@H](Cc1c[nH]cn1)NC(=O)[C@H](Cc1c[nH]cn1)NC(=O)[C@H](CC(C)C)NC(=O)[C@H](Cc1c[nH]c2ccccc12)NC(=O)[C@H](Cc1ccccc1)NC(=O)[C@H](CCCNC(=N)N)NC(=O)[C@H](CCCNC(=N)N)NC(=O)[C@H](CCCNC(=N)N)NC(=O)[C@H](CC(C)C)NC(=O)[C@H](CC(=O)O)NC(=O)[C@H](CCC(N)=O)NC(=O)[C@@H](NC(=O)[C@H](CO)NC(=O)[C@H](CCCCN)NC(=O)[C@@H](Cc1c[nH]c2ccccc12)NC(=O)[C@H](CC(C)C)NC(=O)[C@H](CC(=O)O)NC(=O)[C@H](Cc1c[nH]cn1)NC(=O)[C@H](CC(C)C)NC(=O)[C@@H](N)CC(C)C)[C@@H](C)CC)C(=O)N[C@@H](C)C(=O)N[C@@H](CCC(=O)O)C(=O)N[C@H](C(=O)N[C@@H](Cc1c[nH]cn1)C(=O)N[C@H](C(=O)N[C@@H](C)C(=O)N[C@@H](CCC(=O)O)C(=O)N[C@@H](Cc1ccc(O)cc1)C(N)=O)[C@@H](C)O)[C@@H](C)CC | – | mouse | 1000 nmol/kg daily, twice daily injection, P7 | – | serum phosphate level | decreased |

Excerpt of the above:
| SMILES | test | system | conditions | scale | measurement | result |
| --- | --- | --- | --- | --- | --- | --- |
| COc1ccc2c(c1)CN(C(=O)CCN1CCC(Cc3ccccc3)CC1)CC[S+]2[O-] (stereo not drawn) | – | dog AF model | dose not given | reference: animals | AF conversion | 100% |
